Experimental data of several laboratories.
Lines come from different studies, so protocols differ. ± marks the error that the study gave.
Sequence of UniProt Q15858 (whole entry, looked up): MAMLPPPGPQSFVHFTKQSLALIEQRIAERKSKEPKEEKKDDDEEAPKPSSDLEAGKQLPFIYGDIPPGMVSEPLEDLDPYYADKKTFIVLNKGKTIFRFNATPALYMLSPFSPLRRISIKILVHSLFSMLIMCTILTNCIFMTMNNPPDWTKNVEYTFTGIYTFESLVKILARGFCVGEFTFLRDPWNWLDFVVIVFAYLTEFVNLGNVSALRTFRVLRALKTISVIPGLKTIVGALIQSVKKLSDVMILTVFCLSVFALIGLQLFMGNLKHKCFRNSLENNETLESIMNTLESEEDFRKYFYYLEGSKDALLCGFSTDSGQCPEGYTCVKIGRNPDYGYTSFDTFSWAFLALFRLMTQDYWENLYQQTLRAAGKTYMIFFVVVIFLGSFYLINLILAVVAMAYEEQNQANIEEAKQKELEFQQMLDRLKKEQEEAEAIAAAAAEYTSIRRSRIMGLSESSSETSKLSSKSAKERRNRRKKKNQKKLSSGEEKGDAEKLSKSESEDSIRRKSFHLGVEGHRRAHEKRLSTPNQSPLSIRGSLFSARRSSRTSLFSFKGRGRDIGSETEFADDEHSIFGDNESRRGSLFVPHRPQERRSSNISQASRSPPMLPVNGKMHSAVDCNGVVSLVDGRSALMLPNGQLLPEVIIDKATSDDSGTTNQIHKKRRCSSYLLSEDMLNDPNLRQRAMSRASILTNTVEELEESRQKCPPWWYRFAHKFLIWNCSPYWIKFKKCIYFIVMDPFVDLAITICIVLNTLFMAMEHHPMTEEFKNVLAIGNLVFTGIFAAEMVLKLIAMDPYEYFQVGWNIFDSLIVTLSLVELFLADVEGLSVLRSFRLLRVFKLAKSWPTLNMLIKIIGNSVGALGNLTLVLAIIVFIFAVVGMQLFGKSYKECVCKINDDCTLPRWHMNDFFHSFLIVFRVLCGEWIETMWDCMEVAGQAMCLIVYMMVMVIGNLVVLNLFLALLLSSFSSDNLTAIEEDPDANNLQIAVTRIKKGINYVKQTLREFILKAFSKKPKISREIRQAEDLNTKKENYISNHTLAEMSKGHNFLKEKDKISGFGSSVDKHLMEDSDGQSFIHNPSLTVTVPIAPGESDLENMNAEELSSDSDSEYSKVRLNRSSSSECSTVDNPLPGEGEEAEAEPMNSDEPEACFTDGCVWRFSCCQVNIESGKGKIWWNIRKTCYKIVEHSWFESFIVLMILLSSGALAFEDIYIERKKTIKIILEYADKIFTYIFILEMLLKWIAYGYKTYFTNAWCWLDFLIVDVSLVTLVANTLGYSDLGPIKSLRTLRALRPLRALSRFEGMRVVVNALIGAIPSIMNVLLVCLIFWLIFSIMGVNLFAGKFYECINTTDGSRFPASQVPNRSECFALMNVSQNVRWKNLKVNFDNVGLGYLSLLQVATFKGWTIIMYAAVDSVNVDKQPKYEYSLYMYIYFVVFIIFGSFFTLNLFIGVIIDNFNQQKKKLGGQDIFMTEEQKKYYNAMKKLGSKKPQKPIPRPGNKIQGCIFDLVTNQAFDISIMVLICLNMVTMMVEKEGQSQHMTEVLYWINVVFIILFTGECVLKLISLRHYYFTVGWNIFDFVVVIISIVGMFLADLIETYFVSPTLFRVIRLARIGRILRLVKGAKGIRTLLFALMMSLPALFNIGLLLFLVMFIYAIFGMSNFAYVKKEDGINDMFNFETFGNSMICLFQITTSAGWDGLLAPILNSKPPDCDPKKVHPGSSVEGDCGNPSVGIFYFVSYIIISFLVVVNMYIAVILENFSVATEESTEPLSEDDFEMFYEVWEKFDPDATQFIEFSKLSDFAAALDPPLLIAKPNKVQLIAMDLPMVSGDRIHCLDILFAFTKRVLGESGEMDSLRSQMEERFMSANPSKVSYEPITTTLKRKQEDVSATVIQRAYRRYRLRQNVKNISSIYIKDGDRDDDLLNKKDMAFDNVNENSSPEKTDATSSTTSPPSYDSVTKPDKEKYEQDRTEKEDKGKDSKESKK

Cc1cc(/C=C/C#N)cc(C)c1Nc1nc(Nc2ccc(C#N)cc2)ncc1N — EC50 (HIV-1; viral replication, single-round infection; RT mutant G190S): 0.0004 ± 7e-05 µM
COC(=O)[C@H](CCCNC(=O)OC(C)(C)C)NC(=O)c1ccc(NCc2ccc3nc(N)nc(N)c3c2Cl)cc1 — MIC (Mycobacterium tuberculosis; pptH knockout): < 0.1 µM
N=C1C(=Cc2ccc(SCc3ccc(Cl)cc3)o2)C(=O)N=C2SC(c3cccs3)=NN12 — IC50 (Mycobacterium tuberculosis; resazurin; rel knockout; 168 h, nutrient-starved): > 128 µM
Br.Br.Br.CNC1C(O)C(NC)C2OC3(O)C(OC(C)C[C@H]3NC(=O)Cc3ccccn3)OC2C1O (stereo partly drawn) — MIC (Mycobacterium tuberculosis; H37Rv Rv1258c knockout, 7H9 broth; 7 days): 3.1 µg/mL
CN[C@@H]1[C@H](O)[C@H](NC)[C@H]2O[C@]3(O)[C@H](O[C@@H]2[C@H]1O)O[C@H](C)C[C@H]3NC(=O)CNC(C)(C)C — MIC (Mycobacterium tuberculosis): 3.12 µg/mL
CC[C@H](C)[C@H](NC(=O)[C@H](CCCCN)NC(=O)[C@H](CCCCN)NC(=O)[C@H](CC(C)C)NC(=O)[C@H](Cc1c[nH]c2ccccc12)NC(=O)CN)C(=O)NCC(=O)N[C@@H](CCCCN)C(=O)N[C@@H](CCCCN)C(=O)N[C@H](C(=O)N[C@@H](CCC(=O)O)C(=O)N[C@@H](CCCNC(=N)N)C(=O)N[C@H](C(=O)NCC(=O)N[C@@H](CCC(N)=O)C(=O)N[C@@H](Cc1c[nH]cn1)C(=O)N[C@H](C(=O)N[C@@H](CCCNC(=N)N)C(=O)N[C@@H](CC(=O)O)C(=O)N[C@@H](C)C(=O)N[C@H](C(=O)N[C@H](C(=O)N[C@@H](CCC(N)=O)C(=O)N[C@H](C(=O)N[C@H](C(=O)NCC(=O)N[C@H](C(=O)N[C@@H](C)C(=O)N[C@@H](CCC(N)=O)C(=O)N[C@@H](CCC(N)=O)C(=O)N[C@@H](C)C(=O)N[C@@H](C)C(=O)N[C@@H](CC(N)=O)C(=O)N[C@H](C(=O)N[C@@H](C)C(=O)N[C@@H](C)C(=O)N[C@H](C(=O)N[C@@H](CC(C)C)C(=O)N[C@@H](CCCCN)C(N)=O)[C@@H](C)O)C(C)C)C(C)C)[C@@H](C)CC)[C@@H](C)O)[C@@H](C)CC)[C@@H](C)O)[C@@H](C)O)C(C)C)[C@@H](C)CC — MIC (Escherichia coli; broth microdilution; ATCC 25922, CAMHB): 4 µg/mL
Cc1ccc(C(=O)OC(C)C)c(N2CCN(Cc3ccccc3OC(F)F)CC2)n1 — IC50 (Mycobacterium tuberculosis; resazurin; rel knockout; 168 h, nutrient-starved): > 64 µM
CCCCCCCCCCCCCCCC(=O)N[C@@H](CCC(=O)NCCCC[C@H](NC(=O)[C@H](CC(=O)O)NC(=O)[C@H](CO)NC(=O)[C@@H](NC(=O)[C@H](Cc1ccccc1)NC(=O)[C@@H](NC(=O)CNC(=O)[C@H](CCC(N)=O)NC(=O)[C@H](C)NC(=O)[C@@H](Cc1ccc(O)cc1)NC(C)=O)[C@@H](C)O)[C@@H](C)O)C(=O)N[C@@H](CO)C(=O)N[C@@H](CCCCN)C(=O)N[C@@H](Cc1ccc(O)cc1)C(=O)N[C@@H](CC(C)C)C(=O)N[C@@H](CC(=O)O)C(=O)N[C@@H](CCC(=O)O)C(=O)N[C@@H](CCCNC(=N)N)C(=O)N[C@@H](C)C(=O)N[C@@H](C)C(=O)N[C@@H](CCC(N)=O)C(=O)N[C@@H](CC(=O)O)C(=O)N[C@@H](Cc1ccccc1)C(=O)N[C@H](C(=O)N[C@@H](CCC(N)=O)C(=O)N[C@@H](Cc1c[nH]c2ccccc12)C(=O)N[C@@H](CC(C)C)C(=O)N[C@@H](CC(C)C)C(=O)N[C@@H](CCC(=O)O)C(=O)NCC(=O)NCC(=O)N1CCC[C@H]1C(=O)N[C@@H](CO)C(=O)N[C@@H](CO)C(=O)NCC(=O)N[C@@H](C)C(=O)N1CCC[C@H]1C(=O)N1CCC[C@H]1C(=O)N1CCC[C@H]1C(=O)N[C@@H](CO)C(N)=O)C(C)C)C(=O)O — Tmax (male cynomolgus monkey, plasma; subcutaneous, 0.0161 mg/kg): 7 h
CCOC(=O)CC[C@@H](NC(=O)c1ccc(N(C)Cc2ccc3[nH]c(C)nc(=O)c3c2)s1)C(=O)OCC — MIC (Mycobacterium tuberculosis; pptH knockout): > 100 µM
CNC1C(O)C(NC)C2OC3(O)C(OC(C)C[C@H]3NC(=O)Cc3cc(Cl)ccn3)OC2C1O.Cl.Cl (stereo partly drawn) — MIC (Mycobacterium tuberculosis; H37Rv Rv1258c knockout, 7H9 broth; 7 days): 1.6 µg/mL
CC[C@H](C)[C@@H]([C@@H](CC(=O)N1CCC[C@H]1[C@H](OC)[C@@H](C)C(=O)N[C@H](C)[C@@H](O)c1ccccc1)OC)N(C)C(=O)[C@@H](NC(=O)[C@H](C(C)C)N(C)C(=O)OCc1ccc(NC(=O)[C@H](CCCNC(N)=O)NC(=O)[C@@H](NC(=O)CCCC(=O)NCCC(=O)N(C)CC(=O)N(C)CC(=O)N(C)CC(=O)N(C)CC(=O)N(C)CC(=O)N(C)CC(=O)N(C)CC(=O)N(C)CC(=O)N(C)CC(=O)N(C)CC(=O)N[C@H]2CSCCC(=O)N3CN4CN(C3)C(=O)CCSC[C@H](NC(=O)[C@@H](CC(=O)O)NC(=O)[C@H](Cc3cccc5ccccc35)NC(=O)[C@@H]3CCCN3C2=O)C(=O)N[C@@H](CCSC)C(=O)N[C@@H](CCCCNC(=N)N)C(=O)N[C@@H](CC(=O)O)C(=O)N[C@@H](Cc2c[nH]c3ccccc23)C(=O)N[C@@H](CO)C(=O)N[C@@H]([C@@H](C)O)C(=O)N2CCC[C@H]2C(=O)N2C[C@H](O)C[C@H]2C(=O)N[C@@H](Cc2c[nH]c3ccccc23)C(=O)N[C@H](C(N)=O)CSCCC4=O)C(C)C)cc1)C(C)C — t_half (mouse plasma; 2 µM, pH 7.4): 264 min
CNC1C(O)C(NC)C2OC3(O)C(OC(C)C[C@H]3NC(=O)Cc3ccccc3)OC2C1O.Cl.Cl (stereo partly drawn) — MIC (Mycobacterium tuberculosis; H37Rv Rv1258c knockout, 7H9 broth; 7 days): 1.6 µg/mL
CCCCCCCCCCCCCCCC(=O)N[C@@H](CCC(=O)NCCOCCOCCC(=O)NCCOCCOCCC(=O)NCCCC[C@H](NC(=O)[C@H](CC(=O)O)NC(=O)[C@H](CC(C)C)NC(=O)[C@H](Cc1ccc(O)cc1)NC(=O)[C@H](CCCCN)NC(=O)[C@H](CO)NC(=O)[C@H](Cc1ccc(O)cc1)NC(=O)[C@H](CC(=O)O)NC(=O)[C@H](CO)NC(=O)[C@@H](NC(=O)[C@H](Cc1ccccc1)NC(=O)[C@@H](NC(=O)CNC(=O)[C@H](CCC(N)=O)NC(=O)[C@@H](CO)NC(=O)[C@@H](N)Cc1c[nH]cn1)[C@@H](C)O)[C@@H](C)O)C(=O)N[C@@H](CCCNC(=N)N)C(=O)N[C@@H](CCCNC(=N)N)C(=O)N[C@@H](C)C(=O)N[C@@H](CCC(N)=O)C(=O)N[C@@H](CC(=O)O)C(=O)N[C@@H](Cc1ccccc1)C(=O)N[C@H](C(=O)N[C@@H](CCC(N)=O)C(=O)N[C@@H](Cc1c[nH]c2ccccc12)C(=O)N[C@@H](CC(C)C)C(=O)N[C@@H](CC(C)C)C(=O)N[C@@H](CC(N)=O)C(=O)N[C@H](C(=O)NCC(=O)NCC(=O)N1CCC[C@H]1C(=O)N[C@@H](CO)C(=O)N[C@@H](CO)C(=O)NCC(=O)N[C@@H](C)C(=O)N1CCC[C@H]1C(=O)N1CCC[C@H]1C(=O)N1CCC[C@H]1C(=O)N[C@@H](CO)C(N)=O)[C@@H](C)O)C(C)C)C(=O)O — serum enzyme activity (measured: ALP; rhesus monkey, female; subcutaneous, 300 µg/kg once daily, 28 days): 192 ± 37.4 U/L
CN[C@@H]1[C@H](O)[C@H](NC)[C@H]2O[C@]3(O)[C@H](O[C@@H]2[C@H]1O)O[C@H](C)C[C@H]3NC(=O)Cc1ccc(F)cn1 — MIC (Mycobacterium tuberculosis): 1.6 µg/mL
CC(C)(C)c1ccc(-c2cncc(-c3nc4ccc5cc(C(=O)O)cc(O)c5c4[nH]3)c2)cc1 — IC50 (Mycobacterium tuberculosis; resazurin; rel knockout; 168 h, nutrient-starved): 32 µM
CN[C@@H]1[C@H](O)[C@H](NC)[C@H]2O[C@]3(O)[C@H](O[C@@H]2[C@H]1O)O[C@H](C)C[C@H]3NC(=O)Cc1ccccc1 — MIC (Mycobacterium tuberculosis): 0.75 to 1.5 µg/mL
C#CCN(Cc1ccc2nc(N)nc(N)c2c1)c1ccc(C(=O)N[C@@H](CCC(=O)OCC)C(=O)OCC)cc1 — MIC (Mycobacterium tuberculosis; pptH knockout): < 0.1 µM
CC(C)C[C@@H]1NC(=O)[C@H](CCCNC(=N)N)NC(=O)[C@@H]2CCCN2C(=O)[C@@H]2CSSC[C@H](NC(=O)CNC(=O)[C@@H]3CCCN3C(=O)[C@H](CCCCN)NC(=O)[C@H](CC(=O)O)NC(=O)[C@@H](NC(=O)CN)C(C)C)C(=O)N[C@@H](CCCNC(=N)N)C(=O)N[C@@H](Cc3ccc(O)cc3)C(=O)N[C@@H](CC(C)C)C(=O)N[C@@H](Cc3ccccc3)C(=O)NCC(=O)NCC(=O)N[C@H]3CSSC[C@H](NC(=O)CNC1=O)C(=O)N[C@@H](CCCCN)C(=O)NCC(=O)N[C@@H](CCCCN)C(=O)NCC(=O)N[C@@H](Cc1c[nH]cn1)C(=O)N[C@@H](CC(=O)O)C(=O)N[C@@H](Cc1ccc(O)cc1)C(=O)N[C@H](C(=O)N[C@@H](C)C(=O)N[C@@H](Cc1c[nH]c4ccccc14)C(=O)N[C@@H](CC(=O)O)C(=O)NCC(=O)N[C@H](C(=O)N[C@@H](Cc1ccccc1)C(=O)N[C@@H](CO)C(=O)N[C@@H](CC(=O)O)C(=O)O)[C@@H](C)O)CSSC[C@H](NC(=O)[C@H](CC(=O)O)NC(=O)[C@H](CC(=O)O)NC(=O)[C@H](CC(=O)O)NC(=O)[C@H](CO)NC(=O)[C@H](CCCCN)NC3=O)C(=O)N2 — inactivation time constant ratio (Sodium channel protein type 9 subunit alpha (SCN9A, Homo sapiens, UniProt Q15858); sodium current, automated patch clamp; HEK293; 1 µM, 50 ms depolarizing pulse; reference: compound over control): 4.27 ± 0.51

Excerpt of the above:
Cc1ccc(C(=O)OC(C)C)c(N2CCN(Cc3ccccc3OC(F)F)CC2)n1 — IC50 (Mycobacterium tuberculosis; resazurin; rel knockout; 168 h, nutrient-starved): > 64 µM
